{"data": "Assay results from different studies", "note": "Each numbered part is a random draw from the data of one study; scales do not carry over between parts. Positions count from the first letter of the parent shown."}
{"data": "Series 1", "target": "Centromere-binding protein 1, full length, N-terminal tag (CBF1, Saccharomyces cerevisiae, UniProt P17106, residues 1-351)", "method": "protein-binding microarray", "molecule type": "double-stranded DNA, one strand shown", "sample": "in vitro", "concentration": "0.8 µM", "setting": "whole 60-bp probe, no competitor", "reading": "higher = stronger binding", "shared flanks, not repeated": "… GTCTTGATTCGCTTGACGCTGCTG", "UniProt P17106, sequence (whole entry, looked up)": "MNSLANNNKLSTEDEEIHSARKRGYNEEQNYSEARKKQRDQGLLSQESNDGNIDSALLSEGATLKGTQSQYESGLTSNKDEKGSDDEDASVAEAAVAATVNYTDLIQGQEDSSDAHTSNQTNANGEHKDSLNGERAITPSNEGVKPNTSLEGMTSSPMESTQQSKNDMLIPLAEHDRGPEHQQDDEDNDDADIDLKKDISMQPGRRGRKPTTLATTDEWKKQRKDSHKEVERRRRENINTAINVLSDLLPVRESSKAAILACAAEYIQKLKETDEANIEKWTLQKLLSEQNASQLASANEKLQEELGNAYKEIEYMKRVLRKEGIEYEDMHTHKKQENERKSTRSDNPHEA"}
{"Oligonucleotide": "GAAAAAGAGGGAAGGCACGCATGGAAGTGACTGTAG", "fluorescence intensity [a.u.]": 526}
{"Oligonucleotide": "TGTACGAAGCTATGTCACCTCATTATAGTAGTTAGG", "fluorescence intensity [a.u.]": 535}
{"Oligonucleotide": "GAATTTGATAATGTGAACACGTCATCATAGATGTAG", "fluorescence intensity [a.u.]": 615}
{"Oligonucleotide": "CTAAAACATACACATCACGTGACCACAAGAATGTTC", "fluorescence intensity [a.u.]": 43800}
{"Oligonucleotide": "CTAAAAGGAAACAGGCGTGTGATAAGAGGCCAATTC", "fluorescence intensity [a.u.]": 558}
{"Oligonucleotide": "CCTAACTACTATAATGACGGTATATAGCTTCGTACA", "fluorescence intensity [a.u.]": 508}
{"Oligonucleotide": "CTACATTAGAACGCTGATCAGCTGTGTATAGTTTTC", "fluorescence intensity [a.u.]": 667}
{"Oligonucleotide": "CTATGCAGAACTTACCTTGTCACGTTTGGAACTTTC", "fluorescence intensity [a.u.]": 1220}
{"Oligonucleotide": "GAATGTATCATTGCCCTCGTGTTAGATTGGTGATAG", "fluorescence intensity [a.u.]": 611}
{"Oligonucleotide": "GAAGTTTTTTTTTTCATCACCATCGCATCGCAATAG", "fluorescence intensity [a.u.]": 559}
{"Oligonucleotide": "CTAAGACACTGAAGTCAGCTGTTTGAAAGAGTATTC", "fluorescence intensity [a.u.]": 743}
{"data": "Series 2", "target": "CCNA2, cyclin fold, Cln2 fusion (human)", "method": "yeast growth competition, sequencing", "sample": "yeast", "setting": "strong parent motif", "relative to": "not given", "reading": "higher = stronger binding", "parent": "CDC25A docking peptide (human); PPHRRRLLFACSP"}
{"Variant": "L8G", "normalised enrichment score": 1.31}
{"Variant": "R5E", "normalised enrichment score": 0.0926}
{"Variant": "P1A", "normalised enrichment score": 2.15}
{"Variant": "L7G", "normalised enrichment score": 1.13}
{"Variant": "P2N", "normalised enrichment score": 2.55}
{"Variant": "L8E", "normalised enrichment score": 3.1}
{"Variant": "R5K", "normalised enrichment score": 1.95}
{"Variant": "R4M", "normalised enrichment score": 0.881}
{"Variant": "F9Q", "normalised enrichment score": 0.515}
{"Variant": "L7R", "normalised enrichment score": 1.92}
{"Variant": "A10L", "normalised enrichment score": 2.37}
{"Variant": "H3C", "normalised enrichment score": 6.2}
{"data": "Series 3", "target": "Max-binding protein MNT, bHLH-zipper, MAX partner unstated (MNT, Homo sapiens, UniProt Q99583, residues 220-300)", "method": "protein-binding microarray", "molecule type": "double-stranded DNA, one strand shown", "sample": "in vitro", "concentration": "not given", "setting": "k-mer, scored over probes, only values ≥0.25", "reading": "higher = stronger binding", "Target sequence (chain)": "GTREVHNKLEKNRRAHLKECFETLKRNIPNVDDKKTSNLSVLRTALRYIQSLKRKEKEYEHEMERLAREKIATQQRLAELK"}
{"Oligonucleotide": "AAGCGTGT", "E-score": 0.354}
{"Oligonucleotide": "CACACGGG", "E-score": 0.282}
{"Oligonucleotide": "AGTGCATG", "E-score": 0.319}
{"Oligonucleotide": "ACGCACAT", "E-score": 0.405}
{"Oligonucleotide": "AACGTGAT", "E-score": 0.376}
{"Oligonucleotide": "ACGCGACC", "E-score": 0.27}
{"Oligonucleotide": "ATGGCATG", "E-score": 0.364}
{"Oligonucleotide": "CCACACGC", "E-score": 0.389}
{"Oligonucleotide": "CGTGGTGA", "E-score": 0.348}
{"Oligonucleotide": "CACACGCC", "E-score": 0.317}
{"Oligonucleotide": "CAGGTGGG", "E-score": 0.353}
{"data": "Further values, each from its own experiment"}
{"Substance": "PhoQ, residues 284 288 289 292 302 303 TYGVAM", "target": "PhoP, residues 12 14 15 18 19 AQALL (Escherichia coli, UniProt P23836)", "test": "Sort-seq, refers to: YFP reporter", "system": "E. coli", "conditions": "PhoQ-PhoP variant library, added: 10 µM Mg2+", "scale": "relative to: high Mg2+ state, higher = stronger signaling", "measurement": "fold induction", "result": 16.2}
{"note": "Some of these lines once more (series 3):"}
{"Oligonucleotide": "AGTGCATG", "E-score": 0.319}
{"Oligonucleotide": "AACGTGAT", "E-score": 0.376}
{"Oligonucleotide": "ACGCGACC", "E-score": 0.27}
{"Oligonucleotide": "AAGCGTGT", "E-score": 0.354}
{"Oligonucleotide": "CAGGTGGG", "E-score": 0.353}
